# Results collected from several papers.
# Each line is one published result; not all experiments were run side by side. Numbers after ± are the reported error.
# USP20 ZnF-UBD domain: Ubiquitin carboxyl-terminal hydrolase 20, ZnF-UBD domain (USP20, Homo sapiens, UniProt Q9Y2K6)
# UniProt Q9Y2K6, sequence (whole entry, looked up): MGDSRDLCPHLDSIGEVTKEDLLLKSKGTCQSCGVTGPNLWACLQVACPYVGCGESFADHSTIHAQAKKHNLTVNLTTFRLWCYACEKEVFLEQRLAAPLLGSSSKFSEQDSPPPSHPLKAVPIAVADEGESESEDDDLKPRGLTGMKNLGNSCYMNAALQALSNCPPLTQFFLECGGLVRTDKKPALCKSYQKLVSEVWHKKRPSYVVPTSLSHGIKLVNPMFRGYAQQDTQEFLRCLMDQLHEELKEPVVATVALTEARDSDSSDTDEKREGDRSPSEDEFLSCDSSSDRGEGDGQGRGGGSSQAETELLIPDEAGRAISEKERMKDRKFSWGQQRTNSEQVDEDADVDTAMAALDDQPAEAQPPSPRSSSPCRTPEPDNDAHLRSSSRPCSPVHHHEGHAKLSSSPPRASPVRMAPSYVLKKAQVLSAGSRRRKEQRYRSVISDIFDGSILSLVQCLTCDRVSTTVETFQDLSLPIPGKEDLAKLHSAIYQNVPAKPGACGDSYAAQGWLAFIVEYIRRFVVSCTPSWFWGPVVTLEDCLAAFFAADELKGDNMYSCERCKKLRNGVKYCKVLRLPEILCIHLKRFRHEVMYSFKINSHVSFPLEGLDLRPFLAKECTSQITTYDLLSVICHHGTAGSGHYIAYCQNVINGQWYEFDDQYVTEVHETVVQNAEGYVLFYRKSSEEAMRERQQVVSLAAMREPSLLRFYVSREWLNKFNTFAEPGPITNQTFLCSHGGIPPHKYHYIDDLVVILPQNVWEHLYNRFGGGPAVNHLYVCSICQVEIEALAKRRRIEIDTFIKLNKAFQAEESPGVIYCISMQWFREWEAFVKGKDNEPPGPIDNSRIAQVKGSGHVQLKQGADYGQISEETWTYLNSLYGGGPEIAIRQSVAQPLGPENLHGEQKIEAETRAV
# UniProt Q15208, sequence (whole entry, looked up): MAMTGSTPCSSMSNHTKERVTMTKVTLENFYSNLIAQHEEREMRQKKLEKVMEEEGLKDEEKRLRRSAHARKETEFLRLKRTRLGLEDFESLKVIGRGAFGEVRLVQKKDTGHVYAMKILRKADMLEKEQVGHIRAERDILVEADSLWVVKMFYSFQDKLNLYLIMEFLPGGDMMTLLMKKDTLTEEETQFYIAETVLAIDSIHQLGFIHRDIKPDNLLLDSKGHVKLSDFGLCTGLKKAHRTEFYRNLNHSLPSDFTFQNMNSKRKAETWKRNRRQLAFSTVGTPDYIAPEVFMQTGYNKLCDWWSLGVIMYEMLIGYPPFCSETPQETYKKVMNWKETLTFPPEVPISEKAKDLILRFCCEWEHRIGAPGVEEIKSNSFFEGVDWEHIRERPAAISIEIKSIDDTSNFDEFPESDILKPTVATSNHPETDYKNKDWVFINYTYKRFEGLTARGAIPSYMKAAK
Compound,target or system,assay,system,conditions,how to read,measurement,value
CC(C)C[C@H](NC(=O)C[C@H](O)[C@H](CC(C)C)NC(=O)[C@H](Cc1c[nH]cn1)NC(=O)CNC(=O)[C@@H](NC(=O)[C@H](C)NC(=O)[C@H](Cc1c[nH]c2ccccc12)NC(=O)[C@H](CCC(N)=O)NC(=O)[C@@H](Cc1ccccc1)NC(=O)COCCOCCNC(=O)CCC(C(=O)O)N1CCN(CC(=O)O)CCN(CC(=O)O)CCN(CC(=O)O)CC1)C(C)C)C(N)=O (some centres unmarked) [lutetium-177 labelled],,,"BALB/c nu/nu mice, salivary glands","100 pmol, 1 h, with: PA 300 µg",,tissue uptake,0.2 ± 0.1 %ID/g
Cn1cc(-c2ccc(-c3cncc(Cl)c3N3CCC4(CCNC4=O)CC3)cc2)cn1,COLO 205,"gene expression, microarray, refers to: CCL20 mRNA",,"concentration not given, 2 h",relative to: untreated cells,log2 fold change,-2.54
CC[C@@H]1C(=O)N(C)c2cnc(Nc3ccc(C(=O)NC4CCN(C)CC4)cc3OC)nc2N1C1CCCC1,iCell Cardiomyocytes (hiPSC-derived),xCELLigence Cardio impedance,,"concentration not given, 2 h",relative to: control,beat rate,90.4%
CC#CC(=O)N1CCC[C@H]1c1nc(-c2ccc(C(=O)Nc3ccccn3)cc2)c2c(N)nccn12,NLRP3 inflammasome (mouse),,mouse BMDM,10 µM,,inhibition,-26.2%
O=C(O)Cc1cc(O)ccc1O,,"binding, equilibrium dialysis LC-MS",,"5 µM, thermostabilized A2AR-BRIL construct","relative to: no-protein control, direction not given",z-scored log2 fold change,-1.33
N#Cc1c2n(c3c(=O)n(CC(=O)O)cnc13)CCCC2,USP20 ZnF-UBD domain,,,,,Kd,552 µM
c1cn2cc(-c3ccc4cn[nH]c4c3)nc(Nc3ccc(N4CCOCC4)cc3)c2n1,NLRP3 inflammasome (mouse),,mouse BMDM,10 µM,,inhibition,4%
O=P(O)(O)OC1O[C@H](CO)[C@@H](O)[C@H](O)[C@@H]1O (some centres unmarked),,"binding, equilibrium dialysis LC-MS",,"5 µM, thermostabilized A2AR-BRIL construct","relative to: no-protein control, direction not given",z-scored log2 fold change,0.126
OC(CCN1CCCCC1)(c1ccccc1)C1CC2C=CC1C2 (centres unmarked),,resting-state EEG,healthy elderly humans,"oral, 2 mg, eyes closed, LS mean",,EEG Beta3-power Pz-O1,2.2 µV²
COc1ccc2[nH]cc(CCNC(C)=O)c2c1,,"binding, equilibrium dialysis LC-MS",,"5 µM, thermostabilized A2AR-BRIL construct","relative to: no-protein control, direction not given",z-scored log2 fold change,0.544
COc1cc2c(N3CCN(C(=O)Nc4ccc(OC(C)C)cc4)CC3)ncnc2cc1OCCCN1CCCCC1,iCell Cardiomyocytes (hiPSC-derived),xCELLigence Cardio impedance,,"concentration not given, 2 h",relative to: control,beat rate,92.9%
O=C(O)CC[C@@H](O)C(=O)O,,"binding, equilibrium dialysis LC-MS",,"5 µM, thermostabilized A2AR-BRIL construct","relative to: no-protein control, direction not given",z-scored log2 fold change,0.267
CC[C@H](Nc1ncnc2[nH]cnc12)c1nc2cccc(F)c2c(=O)n1-c1ccccc1,NLRP3 inflammasome (mouse),,mouse BMDM,10 µM,,inhibition,39.4%
O=C(O)COP(=O)(O)O,,"binding, equilibrium dialysis LC-MS",,"5 µM, thermostabilized A2AR-BRIL construct","relative to: no-protein control, direction not given",z-scored log2 fold change,0.455
CCn1c(-c2nonc2N)nc2c(C#CC(C)(C)O)ncc(OC[C@H]3CCCNC3)c21,iCell Cardiomyocytes (hiPSC-derived),cellular impedance,,"concentration not given, 24 h",relative to: control,cell index,91.2%
CC[C@@H]1[C@H](F)C(=O)N[C@@H]1COc1nccc2cc(C(N)=O)c(OC)cc12,"Serine/threonine-protein kinase 38 (STK38, Homo sapiens, UniProt Q15208)","ATP-site probe binding, ActivX profiling",THP-1 cell lysate,"0.01 mM, Lys1 site",,inhibition,1.5%
COCCNCc1ccc(-c2cc3nccc(Oc4ccc(NC(=O)C5(C(=O)Nc6ccc(F)cc6)CC5)cc4F)c3s2)nc1,NLRP3 inflammasome (mouse),,mouse BMDM,10 µM,,inhibition,-16.4%
CN(C)C[C@@H]1CCn2cc(c3ccccc32)C2=C(C(=O)NC2=O)c2cn(c3ccccc23)CCO1,iCell Cardiomyocytes (hiPSC-derived),xCELLigence Cardio impedance,,"concentration not given, 2 h",relative to: control,beat amplitude,95.4%
C[C@H]1CNC(=O)c2cnn3ccc(nc23)N[C@H](C)c2cc(F)ccc2O1,NLRP3 inflammasome (mouse),,mouse BMDM,10 µM,,inhibition,7.21%
COc1cc2oc(=O)cc(C)c2cc1CCC(=O)O,USP20 ZnF-UBD domain,,,,,Kd,465 µM
OC[C@H]1O[C@H](OCC2O[C@@H](O)[C@H](O)[C@@H](O)[C@@H]2O)[C@H](O)[C@@H](O)[C@H]1O (some centres unmarked),,"binding, equilibrium dialysis LC-MS",,"5 µM, thermostabilized A2AR-BRIL construct","relative to: no-protein control, direction not given",z-scored log2 fold change,0.268
O=C1c2c(O)ccc(O)c2C(=O)c2c(NCCNCCO)ccc(NCCNCCO)c21,NLRP3 inflammasome (mouse),,mouse BMDM,10 µM,,inhibition,54.8%
OCCn1cc(-c2ccc3c(c2)CC/C3=N\O)c(-c2ccncc2)n1,iCell Cardiomyocytes (hiPSC-derived),xCELLigence Cardio impedance,,"concentration not given, 2 h",relative to: control,beat amplitude,106%

# Excerpt of the above:
Compound,target or system,assay,system,conditions,how to read,measurement,value
c1cn2cc(-c3ccc4cn[nH]c4c3)nc(Nc3ccc(N4CCOCC4)cc3)c2n1,NLRP3 inflammasome (mouse),,mouse BMDM,10 µM,,inhibition,4%
OC(CCN1CCCCC1)(c1ccccc1)C1CC2C=CC1C2 (centres unmarked),,resting-state EEG,healthy elderly humans,"oral, 2 mg, eyes closed, LS mean",,EEG Beta3-power Pz-O1,2.2 µV²
CC[C@@H]1[C@H](F)C(=O)N[C@@H]1COc1nccc2cc(C(N)=O)c(OC)cc12,"Serine/threonine-protein kinase 38 (STK38, Homo sapiens, UniProt Q15208)","ATP-site probe binding, ActivX profiling",THP-1 cell lysate,"0.01 mM, Lys1 site",,inhibition,1.5%
CN(C)C[C@@H]1CCn2cc(c3ccccc32)C2=C(C(=O)NC2=O)c2cn(c3ccccc23)CCO1,iCell Cardiomyocytes (hiPSC-derived),xCELLigence Cardio impedance,,"concentration not given, 2 h",relative to: control,beat amplitude,95.4%
